Measurements gathered from unrelated publications.
Compare with care: the assays were run in different laboratories. Values joined by “and” are separate records of one study, mostly repeats; a detail may differ.
HLA class I histocompatibility antigen, A alpha chain allele A*24:02: HLA class I histocompatibility antigen, A alpha chain, allele A*24:02 (Homo sapiens, UniProt P04439)
SCRIB PDZ3 domain: Protein scribble homolog, PDZ3 domain (SCRIB, Homo sapiens, UniProt Q14160)
HLA class I histocompatibility antigen, A alpha chain allele A*01:01: HLA class I histocompatibility antigen, A alpha chain, allele A*01:01 (Homo sapiens, UniProt P04439)

`VQLIMQLM` gave a binding score of 21.6% (HLA class I histocompatibility antigen, A alpha chain allele A*24:02; conformational ELISA; peptide; concentration not given; baseline: positive control peptide, direction not given).
For `VKPQVSESKL`, the Kd was 100 µM (SCRIB PDZ3 domain; binding, fluorescence polarization; peptide, solution; Scribble PDZ3 domain).
`NRVDSKETEC` — result for “normalised SPR binding response”: 44.3 normalised RU (human SCRIB PDZ3-4 tandem (MBP fusion); surface plasmon resonance; peptide; concentration not given; higher = stronger binding).
`ITQLMPFGSL` gave a binding score of 1.8% (HLA class I histocompatibility antigen, A alpha chain allele A*24:02; conformational ELISA; peptide; concentration not given; baseline: positive control peptide, direction not given).
The normalized current of `BzATP` is reported as 0.00962 and 0.011 and 0.0187 (P2X purinoceptor 7 (P2rx7, Rattus norvegicus, UniProt Q64663, Q143A/R125A); ion current, agonist, two-electrode voltage clamp; Xenopus laevis oocytes; 1.2 µM; baseline: highest concentration response).
`tannic acid` gave an inhibition of greater than 90% (hyaluronidase (bovine testes); enzyme activity; 200 µg/mL).
`colistin` has an MIC of greater than 64 µg/mL (Morganella morganii; broth microdilution; clinical isolate RKI-No 599/16).
`methyl-β-cyclodextrin` — result for “glycine uptake rate”: 46 a.u. and 46.1 a.u. and 65.3 a.u. and 65.2 a.u. and 45 a.u. (SLC6A9 (Homo sapiens, UniProt P48067); transport activity, [3H]glycine uptake; 3.5 mg/mL, 1 min, with: glycine 600 µM; higher = more transport).
With `6-carboxyfluorescein` the uptake was 25.3% and 19.4% and 22.3% (SLCO2A1 (Homo sapiens, UniProt Q92959, C143A); compound uptake, substrate; HEK293F expressing SLCO2A1 C143A; 50 µM; baseline: wild type).
For `NSVVLYSTPPI`, the Kd was 100 µM (SCRIB PDZ3 domain; binding, fluorescence polarization; peptide, solution; Scribble PDZ3 domain).
The kcat/KM of `CTIL` is reported as 23000 M⁻¹ s⁻¹ (Protein farnesyltransferase (Rattus norvegicus, UniProt Q02293+Q04631); peptide farnesylation, substrate; peptide; with: C15-Alk 4 µM).
`RFIPKPDGL` gave a binding of 73 ,2 (human HLA-A24 (A*2401); peptide-MHC binding, iTopia initial binding; peptide, plate-bound HLA heavy chain; 11 µM, 18 h, 21 °C; baseline: allele-matched positive control peptide).
`ITDFGRAKLL` gave a binding score of 0.7% (HLA class I histocompatibility antigen, A alpha chain allele A*01:01; conformational ELISA; peptide; concentration not given; baseline: positive control peptide, direction not given).
`GSGAGSETVV`: “normalised SPR binding response” 0 normalised RU (human SCRIB PDZ3-4 tandem (MBP fusion); surface plasmon resonance; peptide; concentration not given; higher = stronger binding).
`milbemycin oxime` has a fraction bound of 1.03% (CDR1 (Candida albicans, UniProt Q5ANA3); binding, microscale thermophoresis; 306 pM).
With `ITDFGRAKLLG` the binding score was 0.1% (HLA class I histocompatibility antigen, A alpha chain allele A*01:01; conformational ELISA; peptide; concentration not given; baseline: positive control peptide, direction not given).
Under “rate constant k-1”, `11-deoxycorticosterone` is recorded as 602 min⁻¹ (human CYP11B2; substrate, stopped-flow kinetics; 4-state closed model, with: adrenodoxin 40-fold excess).
The binding score of `LMPFGSLL` is reported as 10.2% (HLA class I histocompatibility antigen, A alpha chain, allele A*02:01 (Homo sapiens, UniProt P04439); conformational ELISA; peptide; concentration not given; baseline: positive control peptide, direction not given).
`Peginesatide` has a mRNA level of 2.9 fold (UT7/EPO; RT-qPCR, refers to: MYC; concentration not given, 90 min, normalized to HPRT1; baseline: vehicle).

Repeated from above:
`methyl-β-cyclodextrin` — result for “glycine uptake rate”: 46 a.u. and 46.1 a.u. and 65.3 a.u. and 65.2 a.u. and 45 a.u. (SLC6A9 (Homo sapiens, UniProt P48067); transport activity, [3H]glycine uptake; 3.5 mg/mL, 1 min, with: glycine 600 µM; higher = more transport).
`RFIPKPDGL` gave a binding of 73 ,2 (human HLA-A24 (A*2401); peptide-MHC binding, iTopia initial binding; peptide, plate-bound HLA heavy chain; 11 µM, 18 h, 21 °C; baseline: allele-matched positive control peptide).
